Experimental data pooled from the literature.
Parts stem from different laboratories: compare values within a part only. Changes are numbered by the printed parent chain.

Series 1
Target: CCND1, cyclin fold, Cln2 fusion (human)
Technique: yeast growth competition, sequencing
Matrix: yeast
Setting: weak parent motif
Relative to: not given
Direction: higher = stronger binding
Starting sequence: PKMYT1 docking peptide (human); SFEPRNLLSLFED; partner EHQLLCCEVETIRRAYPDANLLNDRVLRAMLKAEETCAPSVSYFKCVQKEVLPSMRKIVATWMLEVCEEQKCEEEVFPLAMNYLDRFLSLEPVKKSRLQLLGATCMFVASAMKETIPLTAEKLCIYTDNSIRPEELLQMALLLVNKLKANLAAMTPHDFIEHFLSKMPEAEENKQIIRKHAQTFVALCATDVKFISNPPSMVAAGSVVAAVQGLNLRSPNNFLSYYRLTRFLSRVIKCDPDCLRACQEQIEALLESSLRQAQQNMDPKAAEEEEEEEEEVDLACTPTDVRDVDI
Change | normalised enrichment score
S1R | -0.251
E3P | 1.74
L10M | 0.988
S1W | 0.277
D13R | 1.05
P4I | -0.0198
L7T | 1.02
E12W | 0.921
F11N | 0.777
E3L | 0.685
D13H | 0.435
F11M | 0.914
R5K | 1.31
L7Q | 0.861
N6Y | 1.12

Series 2
Target: Hepatocyte nuclear factor 3-beta, forkhead domain (FOXA2, Homo sapiens, UniProt Q9Y261, residues 142-269)
Technique: protein-binding microarray
Form: double-stranded DNA, one strand shown
Matrix: in vitro
Tested at: not given
Setting: k-mer, scored over probes, only values ≥0.25
Direction: higher = stronger binding
Residues (chain): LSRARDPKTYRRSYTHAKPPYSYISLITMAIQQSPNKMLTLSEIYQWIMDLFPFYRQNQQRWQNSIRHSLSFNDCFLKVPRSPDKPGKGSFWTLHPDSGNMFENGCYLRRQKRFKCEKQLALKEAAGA
Oligonucleotide | E-score
AGTATAAA | 0.292
ATATCCAA | 0.291
ATAGTATA | 0.255
ACATGAGA | 0.257
ACAGTACA | 0.297
TCATCACA | 0.255
GTATCAAC | 0.306
ACGTACAT | 0.255
ATATCTTG | 0.263
ACACAATG | 0.276
GTAAAGTA | 0.321
AGATGAAA | 0.261
AGATATAA | 0.267

Series 3
Target: ABI1, truncated, D143A, DHFR fusion (Arabidopsis thaliana)
Technique: DHFR PCA, deep sequencing
Matrix: yeast
Setting: methotrexate growth selection, single substitutions
With: (+)-ABA 17 µM
Relative to: wild-type fitted maximum
Direction: higher = stronger binding
Starting sequence: PYL1, truncated, DHFR fusion (Arabidopsis thaliana); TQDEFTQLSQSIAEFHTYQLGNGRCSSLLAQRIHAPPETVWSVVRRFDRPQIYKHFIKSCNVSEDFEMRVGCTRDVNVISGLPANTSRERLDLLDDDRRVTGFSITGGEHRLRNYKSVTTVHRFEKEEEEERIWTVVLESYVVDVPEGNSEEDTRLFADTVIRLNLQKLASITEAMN; partner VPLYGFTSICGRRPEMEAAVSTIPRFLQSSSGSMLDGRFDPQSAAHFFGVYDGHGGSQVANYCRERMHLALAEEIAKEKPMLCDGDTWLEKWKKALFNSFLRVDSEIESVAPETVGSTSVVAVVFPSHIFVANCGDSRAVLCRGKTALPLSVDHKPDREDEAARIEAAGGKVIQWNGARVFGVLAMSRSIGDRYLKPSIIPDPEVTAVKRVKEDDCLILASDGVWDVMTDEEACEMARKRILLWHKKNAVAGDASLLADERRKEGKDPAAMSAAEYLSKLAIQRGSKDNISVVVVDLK
Change | relative binding score
D48L | 4.66%
D75G | 43%
R155I | 81.1%
S104F | 7.08%
F47G | -11.8%
S150Y | 14.3%
S42Y | 44.6%
D159T | 30.2%
K168G | 71.5%
L138F | 76%
E4M | 84.5%
S150H | 39.1%
A175C | 84.1%

Mixed results
Molecule | target | test | test system | setting | scale | endpoint | result
PhoQ, residues 284 288 289 292 302 303 AANNSF | PhoP, residues 12 14 15 18 19 QWHVF (Escherichia coli, UniProt P23836) | Sort-seq, measured: YFP reporter | E. coli | PhoQ-PhoP variant library, with: 10 µM Mg2+ | relative to: high Mg2+ state, higher = stronger signaling | fold induction | 1.74
